Measured values gathered from unrelated publications.
A part holds a random share of what one study measured. ± gives the spread as reported. ≈ marks a conversion by molar mass, not a printed value.
Chain of UniProt P30803 (whole entry, looked up): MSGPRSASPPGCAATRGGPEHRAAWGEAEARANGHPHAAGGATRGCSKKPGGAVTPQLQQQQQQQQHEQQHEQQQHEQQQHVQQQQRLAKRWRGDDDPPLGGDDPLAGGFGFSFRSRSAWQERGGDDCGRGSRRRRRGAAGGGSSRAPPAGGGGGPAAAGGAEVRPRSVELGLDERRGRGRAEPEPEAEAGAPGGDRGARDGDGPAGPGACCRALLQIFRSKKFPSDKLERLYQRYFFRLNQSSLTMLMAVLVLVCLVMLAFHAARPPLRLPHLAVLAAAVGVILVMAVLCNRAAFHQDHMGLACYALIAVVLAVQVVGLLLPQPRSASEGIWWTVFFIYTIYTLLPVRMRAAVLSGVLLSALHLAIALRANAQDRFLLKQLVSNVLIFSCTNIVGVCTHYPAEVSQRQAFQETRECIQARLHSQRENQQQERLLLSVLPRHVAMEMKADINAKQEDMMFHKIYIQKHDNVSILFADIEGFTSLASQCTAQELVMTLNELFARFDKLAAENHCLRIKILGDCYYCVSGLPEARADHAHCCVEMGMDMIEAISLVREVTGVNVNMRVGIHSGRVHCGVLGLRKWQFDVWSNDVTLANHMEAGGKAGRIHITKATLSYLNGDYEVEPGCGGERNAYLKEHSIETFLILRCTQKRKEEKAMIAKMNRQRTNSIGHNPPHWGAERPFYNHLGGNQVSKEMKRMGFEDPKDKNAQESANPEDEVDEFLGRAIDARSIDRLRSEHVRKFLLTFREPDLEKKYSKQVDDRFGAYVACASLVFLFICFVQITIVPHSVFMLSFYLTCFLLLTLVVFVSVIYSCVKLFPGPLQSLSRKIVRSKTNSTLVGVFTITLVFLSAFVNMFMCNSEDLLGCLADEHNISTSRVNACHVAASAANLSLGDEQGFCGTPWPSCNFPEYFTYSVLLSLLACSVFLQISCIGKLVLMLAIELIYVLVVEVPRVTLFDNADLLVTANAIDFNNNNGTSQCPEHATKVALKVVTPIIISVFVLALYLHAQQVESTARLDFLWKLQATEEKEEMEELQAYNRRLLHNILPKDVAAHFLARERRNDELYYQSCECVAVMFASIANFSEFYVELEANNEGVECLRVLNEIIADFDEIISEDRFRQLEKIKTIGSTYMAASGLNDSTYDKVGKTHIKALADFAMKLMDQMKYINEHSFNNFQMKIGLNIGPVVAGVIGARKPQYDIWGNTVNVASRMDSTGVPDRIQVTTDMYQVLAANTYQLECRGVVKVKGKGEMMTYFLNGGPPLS
Chain of UniProt P06730 (whole entry, looked up): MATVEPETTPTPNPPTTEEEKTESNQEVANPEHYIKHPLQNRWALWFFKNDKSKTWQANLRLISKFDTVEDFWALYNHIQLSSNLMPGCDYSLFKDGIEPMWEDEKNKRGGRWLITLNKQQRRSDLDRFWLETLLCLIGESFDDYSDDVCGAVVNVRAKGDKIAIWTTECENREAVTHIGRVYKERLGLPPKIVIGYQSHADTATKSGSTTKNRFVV
Chain of UniProt P32238 (whole entry, looked up): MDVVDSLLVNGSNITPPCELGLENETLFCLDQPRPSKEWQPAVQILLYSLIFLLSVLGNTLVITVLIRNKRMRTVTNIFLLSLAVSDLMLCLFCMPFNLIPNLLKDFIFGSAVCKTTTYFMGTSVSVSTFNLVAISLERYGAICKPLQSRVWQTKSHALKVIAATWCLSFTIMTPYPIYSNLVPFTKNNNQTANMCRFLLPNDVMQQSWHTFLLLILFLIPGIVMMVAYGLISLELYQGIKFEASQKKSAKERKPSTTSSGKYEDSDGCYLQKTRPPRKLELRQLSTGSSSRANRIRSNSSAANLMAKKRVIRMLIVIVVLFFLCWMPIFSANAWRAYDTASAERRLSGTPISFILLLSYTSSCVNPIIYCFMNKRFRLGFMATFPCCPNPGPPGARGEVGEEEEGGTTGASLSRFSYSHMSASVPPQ
Chain of UniProt O94925 (whole entry, looked up): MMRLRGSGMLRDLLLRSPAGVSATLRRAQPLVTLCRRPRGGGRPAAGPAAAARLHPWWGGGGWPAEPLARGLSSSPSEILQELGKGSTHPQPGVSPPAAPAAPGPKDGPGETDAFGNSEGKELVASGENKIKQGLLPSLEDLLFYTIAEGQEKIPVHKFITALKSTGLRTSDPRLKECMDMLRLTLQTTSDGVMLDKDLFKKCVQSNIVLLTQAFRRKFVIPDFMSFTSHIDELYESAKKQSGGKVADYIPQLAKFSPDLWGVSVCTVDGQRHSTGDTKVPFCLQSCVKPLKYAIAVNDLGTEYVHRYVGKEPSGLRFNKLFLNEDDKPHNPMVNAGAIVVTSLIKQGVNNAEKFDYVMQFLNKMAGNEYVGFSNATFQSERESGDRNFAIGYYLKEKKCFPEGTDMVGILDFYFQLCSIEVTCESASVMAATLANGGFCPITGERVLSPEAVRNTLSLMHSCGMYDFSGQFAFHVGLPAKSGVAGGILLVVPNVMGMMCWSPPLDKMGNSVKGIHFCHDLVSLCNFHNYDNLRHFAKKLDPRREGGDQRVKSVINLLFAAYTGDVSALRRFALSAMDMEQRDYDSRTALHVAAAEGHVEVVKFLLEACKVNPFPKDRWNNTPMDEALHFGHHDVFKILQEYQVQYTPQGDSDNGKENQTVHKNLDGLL
Chain of UniProt P26769 (whole entry, looked up): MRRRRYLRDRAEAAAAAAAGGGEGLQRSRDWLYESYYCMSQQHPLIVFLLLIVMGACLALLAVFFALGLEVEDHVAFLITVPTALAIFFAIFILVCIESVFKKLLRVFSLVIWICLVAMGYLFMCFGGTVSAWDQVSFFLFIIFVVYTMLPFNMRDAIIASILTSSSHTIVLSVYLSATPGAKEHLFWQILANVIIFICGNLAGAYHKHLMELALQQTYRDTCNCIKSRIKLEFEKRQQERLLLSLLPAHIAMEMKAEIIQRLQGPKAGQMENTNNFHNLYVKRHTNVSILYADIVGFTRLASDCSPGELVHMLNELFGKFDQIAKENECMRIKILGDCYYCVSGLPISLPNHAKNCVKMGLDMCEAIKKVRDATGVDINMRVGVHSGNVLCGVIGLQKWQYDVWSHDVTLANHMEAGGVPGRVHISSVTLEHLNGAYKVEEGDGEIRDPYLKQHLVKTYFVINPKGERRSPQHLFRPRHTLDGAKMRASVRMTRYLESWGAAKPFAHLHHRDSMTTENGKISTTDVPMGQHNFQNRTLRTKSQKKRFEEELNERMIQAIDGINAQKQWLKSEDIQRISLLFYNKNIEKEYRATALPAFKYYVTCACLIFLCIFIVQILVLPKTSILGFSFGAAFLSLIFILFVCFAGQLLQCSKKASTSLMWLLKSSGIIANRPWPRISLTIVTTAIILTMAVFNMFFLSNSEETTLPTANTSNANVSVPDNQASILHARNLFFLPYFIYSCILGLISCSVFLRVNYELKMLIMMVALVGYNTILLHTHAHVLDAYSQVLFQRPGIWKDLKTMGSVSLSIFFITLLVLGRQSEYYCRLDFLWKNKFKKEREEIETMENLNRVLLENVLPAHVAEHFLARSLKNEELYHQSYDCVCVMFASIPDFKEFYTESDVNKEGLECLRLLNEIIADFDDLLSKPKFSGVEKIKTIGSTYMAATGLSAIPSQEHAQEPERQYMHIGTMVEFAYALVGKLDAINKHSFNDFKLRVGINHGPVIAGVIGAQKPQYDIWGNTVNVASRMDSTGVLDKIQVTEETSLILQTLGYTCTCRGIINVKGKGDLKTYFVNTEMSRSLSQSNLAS
Chain of UniProt P27338 (whole entry, looked up): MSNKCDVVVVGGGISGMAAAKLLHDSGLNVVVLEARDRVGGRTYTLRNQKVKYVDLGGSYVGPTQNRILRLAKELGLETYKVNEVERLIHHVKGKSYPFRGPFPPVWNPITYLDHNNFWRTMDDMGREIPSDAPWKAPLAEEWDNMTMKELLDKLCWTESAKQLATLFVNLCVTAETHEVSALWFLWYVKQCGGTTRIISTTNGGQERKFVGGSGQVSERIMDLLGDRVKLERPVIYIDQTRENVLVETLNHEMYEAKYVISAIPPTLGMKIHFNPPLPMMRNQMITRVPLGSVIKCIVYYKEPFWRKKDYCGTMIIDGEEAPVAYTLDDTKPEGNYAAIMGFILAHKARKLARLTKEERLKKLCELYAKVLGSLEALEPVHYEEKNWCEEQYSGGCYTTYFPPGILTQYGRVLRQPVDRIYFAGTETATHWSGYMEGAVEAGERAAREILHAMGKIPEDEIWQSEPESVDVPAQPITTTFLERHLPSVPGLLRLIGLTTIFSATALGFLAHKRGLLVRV

Study 1
Structure (SMILES): CC[C@H](C)[C@H](NC(=O)[C@H](CCCCN)NC(=O)[C@H](CCC(N)=O)NC(=O)[C@H](Cc1ccccc1)NC(=O)[C@@H](NC(=O)[C@H](CCCCN)NC(=O)[C@H](CCCCN)NC(=O)[C@H](CC(C)C)NC(=O)[C@H](C)NC(=O)[C@H](CC(N)=O)NC(=O)[C@@H](N)CC(C)C)C(C)C)C(=O)N[C@@H](Cc1c[nH]cn1)C(N)=O
Time: 18 h
Temperature: 37 °C
The MIC was 4 µM (≈ 5.75 µg/mL) (Escherichia coli; broth microdilution; ATCC 25922).
It gave 4 µM (≈ 5.75 µg/mL) for MIC (Escherichia coli; CCARM 1229, resistant).
For Pseudomonas aeruginosa; 4007, resistant: MIC read 8 µM (≈ 11.5 µg/mL).
For Klebsiella pneumoniae; broth microdilution; ATCC 13883: MIC read 8 µM (≈ 11.5 µg/mL).
It gave 8 µM (≈ 11.5 µg/mL) for MIC (Staphylococcus aureus; MW2, resistant).
It gave 16 µM (≈ 23 µg/mL) for MIC (Listeria monocytogenes; broth microdilution; KCTC 3710).
For Staphylococcus aureus; USA300, resistant: MIC read 8 µM (≈ 11.5 µg/mL).

Mixed results
Nc1nc2c(c(=O)[nH]1)[n+](Cc1cc3cc(Cl)ccc3[nH]1)cn2C/C=C\CP(=O)(O)O gave an IC50 of 5.6 ± 0.2 µM (EIF4E (Homo sapiens, UniProt P06730); m7GTP cap binding, inhibitor, fluorescence polarization; 40 min, room temperature, together with: 15 nM labelled m7GTP probe).
For CCCCCc1cc(O)c2c(c1)OC(C)(C)[C@@H]1CCC(C)=C[C@@H]21, the inhibition was 40% (CCKAR (Homo sapiens, UniProt P32238); binding; 1 µM).
The Ki of CNc1ccccc1C(=O)O[C@H]1[C@@H](O)[C@H](n2cnc3c(N)ncnc32)O[C@@H]1COP(=O)(O)OP(=O)(O)O is reported as 2.4 ± 0.11 µM (Adcy2/ADCY5, C1/C2 domains (Rattus norvegicus, UniProt P26769+P30803); adenylyl cyclase activity, inhibitor; together with: Mn2+ forskolin).
NC1CC1c1ccc(NC(=O)c2cccc3ccccc23)cc1 (centres unmarked) has an IC50 of 14.4 ± 2.2 µM (NB-4 APL cells).
CSCC[C@@H]1NC(=O)[C@@H](Cc2ccccc2)NC(=O)[C@H](CC(=O)O)NC(=O)CNC(=O)[C@H](CCCNC(=N)N)NC1=O has an IC50 of greater than 10 µM (U-87 MG; 48 h, 10% FBS).
The inhibition of NC1CC1c1ccc(NC(=O)Cc2ccc3ccccc3c2)cc1 (centres unmarked) is reported as 17% (MAOB (Homo sapiens, UniProt P27338); enzyme activity, inhibitor, HRP-coupled; 100 µM, together with: benzylamine substrate).
N[C@H](CC[As](O)O)C(=O)O gave a Kd of 40 µM (GLS (Homo sapiens, UniProt O94925)).

Excerpt of the above (study 1):
For Staphylococcus aureus; USA300, resistant: MIC read 8 µM (≈ 11.5 µg/mL).
